Published values from different studies.
Lines come from different studies, so protocols differ. pIC50: −log10 of the molar value.

Structure (SMILES) | cell line | test | test system | conditions | how to read | pIC50
CCOc1ccccc1-n1c(CN2CCNCC2)nc2cc(OC)ccc2c1=O | PANC-1 | cell growth or viability, ATP luminescence | – | 72 h | – | 5.06
N#C/C(=C/c1ccc(O)c(O)c1)C(N)=S | HEK293-A GFP-LC3B | LC3B puncta formation | – | 22 h, added: chloroquine, torin1 | – | < 4.70
CC(C)C12OC1C1OC13C1(C)CCC4=C(COC4=O)C1CC1OC13C2OC(=O)CCC(=O)OC1OC(CO)C(O)C(O)C1O (stereo not shown) | A253 | cell growth or viability, XTT | – | 47 h | – | 6.15
Cc1cc(Nc2nc(C[C@@]3(C(=O)O)CCN(Cc4cccc(Cl)c4F)[C@H](C)C3)cc(C)c2F)[nH]n1 | SNU-81 | cell proliferation, CellTiter-Glo | – | 5 days | – | 6.94
CCOc1ccccc1-n1c(CN2CCN(C)CC2)nc2ccccc2c1=O | PANC-1 | cell growth or viability, ATP luminescence | – | 72 h | – | 5.77
CC(C)C12OC1C1OC13C1(C)CCC4=C(COC4=O)C1CC1OC13C2OC(=O)CCCOC1OC(CO)C(O)C(O)C1O (stereo not shown) | Detroit 562 | cell growth or viability, XTT | – | 47 h | – | 5.91
CCOc1ccccc1-n1c(CN2CCNCC2)nc2c(C)cccc2c1=O | PANC-1 | cell growth or viability, ATP luminescence | – | 72 h | – | 5.80
Cc1sc2c(c1C)C(c1ccc(-c3cccc(NC(=O)c4cnn5cccnc45)c3)cc1)=N[C@@H](CC(N)=O)c1nnc(C)n1-2 | NOMO-1 | cell growth or viability, ATP luminescence | – | 72 h | – | 8.02
CC(=O)N[C@H](C(=O)N[C@@H](CCCNC(=N)N)C(=O)N[C@@H](CCCCN)C(=O)N[C@@H](CCCNC(=N)N)C(=O)NC(C)(C)C(=O)N[C@@H](CC(C)C)C(=O)N[C@@H](CCCNC(=N)N)C(=O)N[C@@H](CCCNC(=N)N)C(=O)N[C@@H](CC(C)C)C(=O)N[C@@H](CC(C)C)C(=O)N[C@@H](CCC(N)=O)C(=O)NC(C)(C)C(=O)N[C@@H](CCCNC(=N)N)C(=O)N[C@@H](CCC(=O)O)C(=O)N[C@@H](CC(C)C)C(=O)N[C@H](C(=O)N[C@@H](CCC(=O)O)C(N)=O)C(C)C)C(C)C | H3255 (EGFR L858R) | cell viability, ATP luminescence | – | 18 h | – | < 4.00
CC(=O)N[C@H](C(=O)N[C@@H](CCCNC(=N)N)C(=O)N[C@@H](CCCCN)C(=O)N[C@@H](CCCNC(=N)N)C(=O)N[C@H](C(=O)N[C@@H](CC(C)C)C(=O)N[C@@H](CCCNC(=N)N)C(=O)N[C@]1(C)CCCC=CCCC[C@@](C)(C(=O)N[C@@H](CCC(=O)O)C(=O)N[C@@H](CCCNC(=N)N)C(=O)N[C@@H](CCC(=O)O)C(=O)N[C@@H](CC(C)C)C(=O)N[C@H](C(=O)N[C@@H](CCC(=O)O)C(N)=O)C(C)C)NC(=O)[C@H](CC(C)C)NC(=O)[C@H](CC(C)C)NC1=O)[C@@H](C)O)C(C)C | H3255 (EGFR L858R) | cell viability | – | 18 h, serum-free | – | < 4.00
CSCC[C@H](N)C(=O)N[C@@H](C)C(=O)N[C@H](C(=O)N1CCC[C@H]1C(=O)N1CCC[C@H]1C(=O)N[C@H](C(=O)N[C@@H](Cc1ccc(O)cc1)C(=O)N[C@@H](C)C(=O)N[C@@H](CC(=O)O)C(=O)N[C@@H](CC(C)C)C(=O)NCC(=O)N[C@@H](CCCCN)C(=O)N[C@@H](CO)C(=O)N[C@@H](C)C(=O)N[C@@H](CCCNC(=N)N)C(=O)N[C@@H](CC(=O)O)C(=O)N[C@H](C(=O)N[C@@H](Cc1ccccc1)C(=O)N[C@H](C(=O)N[C@@H](CCCCN)C(=O)NCC(=O)N[C@@H](Cc1ccc(O)cc1)C(=O)NCC(=O)N[C@@H](Cc1ccccc1)C(=O)NCC(=O)N[C@@H](CC(C)C)C(=O)N[C@@H](CCCNC(=N)N)C(=O)N[C@@H](CCCCN)C(=O)N[C@@H](CCCCN)C(=O)N[C@@H](CCCNC(=N)N)C(=O)N[C@@H](CCCNC(=N)N)C(=O)N[C@@H](CCC(N)=O)C(=O)N[C@@H](CCCNC(=N)N)C(=O)N[C@@H](CCCNC(=N)N)C(=O)N[C@@H](CCCNC(=N)N)C(=O)NCC(=O)NCC(=O)O)[C@@H](C)O)C(C)C)[C@@H](C)O)C(C)C | CLL patient PBMCs | cell death, PI staining flow cytometry | – | 90 min | – | < 4.52
O=C(c1cc(Cc2n[nH]c(=O)c3ccccc23)ccc1F)N1CC(CNC2CC2)C1 | KATO III | colony formation | – | – | – | 5.81
CCC1(c2ccc(NC(=O)CCC(=O)OC3OC4OC5(C)CCC6C(C)CCC(C3C)C46OO5)cc2)CCC(=O)NC1=O (mixture of isomers) | Hep3B | cell growth or viability, CCK-8 | – | – | – | 6.00
CC(=O)N[C@H](C(=O)N[C@@H](CCCNC(=N)N)C(=O)N[C@@H](CCCCN)C(=O)N[C@@H](CCCNC(=N)N)C(=O)N[C@]1(C)CCCCCCC=CCCC[C@@](C)(C(=O)N[C@@H](CCCNC(=N)N)C(=O)N[C@@H](CCC(=O)O)C(=O)N[C@@H](CC(C)C)C(=O)N[C@H](C(=O)N[C@@H](CCC(=O)O)C(N)=O)C(C)C)NC(=O)[C@H](CCC(N)=O)NC(=O)[C@H](C)NC(=O)[C@H](C)NC(=O)[C@H](CCCNC(=N)N)NC(=O)[C@H](CCCNC(=N)N)NC(=O)[C@H](C)NC1=O)C(C)C | SK-N-MC | cell viability | – | 18 h, serum-free | – | < 5.00
CCCCCCCC(=O)NCCCC[C@H](NC(=O)CCCCCCC)C(=O)N[C@@H](CCCCNC(=O)CCCCCCC)C(=O)NCC(=O)NCC(=O)NCC(=O)N[C@@H](CS)C(=O)N[C@@H](CCCNC(=N)N)C(=O)N[C@@H](CCCCN)C(=O)N1CCC[C@H]1C(=O)N[C@@H](CS)C(=O)N[C@@H](CCCNC(=N)N)C(=O)N[C@@H](CCCCN)C(=O)N1CCC[C@H]1C(N)=O | IPEC-J2 | cell growth or viability, MTT | – | 24 h | – | 4.04
Cc1cc(Oc2nc(N3CC[C@@H](c4ccncc4)C3)ncc2F)[nH]n1 | DLD-1 | cell proliferation | colon cancer | – | – | 4.50
CCCCCCCC(=O)NCCCC[C@H](NC(=O)CCCCCCC)C(=O)N[C@@H](CCCCNC(=O)CCCCCCC)C(=O)NCC(=O)NCC(=O)NCC(=O)N[C@@H](CS)C(=O)N[C@@H](CCCNC(=N)N)C(=O)N[C@@H](CCCCN)C(=O)N1CCC[C@H]1C(N)=O | human red blood cells | haemolysis | – | pH 7.4, 37 °C | relative to: Triton X-100 | 3.28
CCOc1cccc(-n2c(CN3CCNCC3)nc3ccccc3c2=O)c1 | PANC-1 | cell growth or viability, ATP luminescence | – | 72 h | – | < 5.00
CC1CCC2C(C)C(OC(=O)CCC(=O)OC3C(C)OC(n4cc(F)c(=O)[nH]c4=O)C3OC(=O)CCC(=O)OC3OC4OC5(C)CCC6C(C)CCC(C3C)C46OO5)OC3OC4(C)CCC1C32OO4 (stereo not shown) | PC-3 (p53 null) | cell growth, CCK-8 | – | 48 h | – | < 4.30

A few entries again:
Structure (SMILES) | cell line | test | test system | conditions | how to read | pIC50
CCOc1ccccc1-n1c(CN2CCNCC2)nc2cc(OC)ccc2c1=O | PANC-1 | cell growth or viability, ATP luminescence | – | 72 h | – | 5.06
N#C/C(=C/c1ccc(O)c(O)c1)C(N)=S | HEK293-A GFP-LC3B | LC3B puncta formation | – | 22 h, added: chloroquine, torin1 | – | < 4.70
CC(C)C12OC1C1OC13C1(C)CCC4=C(COC4=O)C1CC1OC13C2OC(=O)CCC(=O)OC1OC(CO)C(O)C(O)C1O (stereo not shown) | A253 | cell growth or viability, XTT | – | 47 h | – | 6.15
